Experimental data gathered from unrelated publications.
Each numbered part is a random draw from the data of one study; scales do not carry over between parts.
Chain of UniProt P23975 (whole entry, looked up): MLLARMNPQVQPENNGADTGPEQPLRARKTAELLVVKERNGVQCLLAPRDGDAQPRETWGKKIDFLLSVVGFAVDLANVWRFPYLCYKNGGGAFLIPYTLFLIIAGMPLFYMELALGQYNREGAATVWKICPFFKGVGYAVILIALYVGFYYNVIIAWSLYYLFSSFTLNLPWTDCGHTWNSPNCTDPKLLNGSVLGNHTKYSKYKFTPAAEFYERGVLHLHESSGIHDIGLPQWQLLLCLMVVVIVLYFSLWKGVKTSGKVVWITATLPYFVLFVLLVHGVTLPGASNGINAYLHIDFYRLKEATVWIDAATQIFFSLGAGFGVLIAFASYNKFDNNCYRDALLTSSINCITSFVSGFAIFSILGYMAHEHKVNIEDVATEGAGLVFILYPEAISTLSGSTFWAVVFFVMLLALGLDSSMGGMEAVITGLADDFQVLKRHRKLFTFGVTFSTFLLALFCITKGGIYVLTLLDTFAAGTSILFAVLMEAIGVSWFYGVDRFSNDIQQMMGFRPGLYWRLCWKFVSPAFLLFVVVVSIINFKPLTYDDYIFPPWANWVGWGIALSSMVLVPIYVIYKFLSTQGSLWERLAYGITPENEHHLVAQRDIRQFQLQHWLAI

Set 1
Target: UBE2D3 UBC core domain (UniProt P61077)
Method: yeast two-hybrid
Matrix: yeast
Notes: mostly zero background
Reference: not given
Direction: higher = stronger interaction
B1: TRIM2 RING domain (UniProt Q9C040); chain VRQIDKQFLICSICLERYKNPKVLPCLHTFCERCLQNYIPAHSLTLSCPVCRQTSILPEKGV
B2: RFPL3 RING domain (UniProt O75679); chain MAALFQEASSCPVCSDYLEKPMSLECGCTVCLKCINSLQKEPHGEDLLCCCCSMVSQRNKIRP
B3: TRIM47 RING domain (UniProt Q96LD4); chain MDGSGPFSCPICLEPLREPVTLPCGHNFCLACLGALWPHRGASGAGGPGGAARCPLCQEPFPDGLQLR
B4: MDM2 RING domain (UniProt Q00987); chain TQDKEESVESSLPLNAIEPCVICQGRPKNGCIVHGKTGHLMACFTCAKKLKKRNKPCPVCRQPIQMIVLTYFP
B5: TRIM28 RING domain (UniProt Q13263); chain GAEALELLEHCGVCRERLRPEREPRLLPCLHSACSACLGPAAPAAANSSGDGGAAGDGTVVDCPVCKQQCFSKDIVE
B6: CBLL1 RING domain (UniProt Q75N03); chain GEKDDTPVHFCDKCGLPIKIYGRMIPCKHVFCYDCAILHEKKGDKMCPGCSDPVQRIEQCT
Target sequence (chain): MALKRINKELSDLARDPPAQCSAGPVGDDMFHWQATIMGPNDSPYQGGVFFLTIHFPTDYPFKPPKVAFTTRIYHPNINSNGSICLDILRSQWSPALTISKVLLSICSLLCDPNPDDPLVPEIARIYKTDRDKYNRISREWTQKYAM
Molecule	lacZ reporter activity
B1 (TRIM2 RING domain)	0
B2 (RFPL3 RING domain)	0
B3 (TRIM47 RING domain)	0
B4 (MDM2 RING domain)	0
B5 (TRIM28 RING domain)	0
MEEMEEELKCPVCGSFYREPIILPCSHNLCQACARNILVQTPESESPQSHRAAGSGVSDY (TRIM9 RING domain (UniProt Q9C026))	0
AAQLLEEKLTCAICLGLYQDPVTLPCGHNFCGACIRDWWDRCGKACPECREPFPDGAELR (TRIM65 RING domain (UniProt Q6PJ69))	0
B6 (CBLL1 RING domain)	0

Set 2
Target: HLA class I histocompatibility antigen, A alpha chain, allele A*25:01 (Homo sapiens, UniProt P04439)
Observed: peptide-MHC binding
Molecule type: peptide
Tested at: concentration not given
Molecule	binding
RLDARLQVL	inactive
EPFLVQFWI	inactive
SWHHTSDDF	inactive
QFLSFASLF	inactive
LTDSSTLLV	inactive
GRFQEALKK	inactive
WTLAKPDFV	inactive
TLPGCLIIL	inactive

Mixed results
Substance	tested on	test	conditions	endpoint	value
O=C(NS(=O)(=O)c1ccc(NCC2CCOCC2)c([N+](=O)[O-])c1)c1ccc(N2CCN(Cc3ccc(C(F)(F)F)cc3-c3ccc(Cl)cc3)CC2)cc1Oc1cnc2[nH]ccc2c1	Sodium-dependent noradrenaline transporter (SLC6A2, Homo sapiens, UniProt P23975)	ligand displacement	10 µM	inhibition	-21.9%
Picrotoxin	Sarcocystis neurona	HTS	concentration not given	activity	inactive
CCCCOc1ccc(C(=O)Nc2nc3ccc(S(=O)(=O)N(C)C)cc3s2)cc1	HEK-293T-ACE2-TMPRSS2	cell count	concentration not given	viability	74%

Excerpt of the above (set 2):
Molecule	binding
EPFLVQFWI	inactive
